Measurements collected from several papers.
Each numbered part is a random draw from the data of one study; scales do not carry over between parts. “And” joins repeats or separate records; there may be more than shown. pKd: −log10 of the molar value.
UniProt O43293, sequence (whole entry, looked up): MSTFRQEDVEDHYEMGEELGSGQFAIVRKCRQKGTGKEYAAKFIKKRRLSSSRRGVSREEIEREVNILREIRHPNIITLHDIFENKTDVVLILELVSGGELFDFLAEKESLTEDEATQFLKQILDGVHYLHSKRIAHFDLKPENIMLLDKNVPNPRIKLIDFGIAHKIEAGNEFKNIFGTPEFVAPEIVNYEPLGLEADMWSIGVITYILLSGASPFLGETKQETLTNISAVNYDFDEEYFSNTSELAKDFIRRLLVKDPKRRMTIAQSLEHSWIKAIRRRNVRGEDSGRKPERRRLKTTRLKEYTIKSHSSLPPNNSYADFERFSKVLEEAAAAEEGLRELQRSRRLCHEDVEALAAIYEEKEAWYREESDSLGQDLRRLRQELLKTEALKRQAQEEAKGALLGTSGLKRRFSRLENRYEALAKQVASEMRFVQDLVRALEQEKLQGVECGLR
UniProt P35367, sequence (whole entry, looked up): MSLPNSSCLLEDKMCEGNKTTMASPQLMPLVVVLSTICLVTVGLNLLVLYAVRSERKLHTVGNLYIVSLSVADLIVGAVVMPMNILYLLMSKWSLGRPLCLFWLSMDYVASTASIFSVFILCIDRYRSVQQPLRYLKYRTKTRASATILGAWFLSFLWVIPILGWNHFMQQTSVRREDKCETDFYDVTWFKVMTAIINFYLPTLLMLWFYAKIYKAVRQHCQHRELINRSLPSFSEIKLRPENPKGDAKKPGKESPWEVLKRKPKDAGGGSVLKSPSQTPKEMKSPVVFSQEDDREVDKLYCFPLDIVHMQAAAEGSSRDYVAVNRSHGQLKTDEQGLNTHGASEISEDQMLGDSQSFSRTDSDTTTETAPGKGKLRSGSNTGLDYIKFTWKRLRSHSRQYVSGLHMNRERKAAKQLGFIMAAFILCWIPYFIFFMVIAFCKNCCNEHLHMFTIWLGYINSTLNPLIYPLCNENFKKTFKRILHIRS
UniProt Q5VT25, sequence (whole entry, looked up): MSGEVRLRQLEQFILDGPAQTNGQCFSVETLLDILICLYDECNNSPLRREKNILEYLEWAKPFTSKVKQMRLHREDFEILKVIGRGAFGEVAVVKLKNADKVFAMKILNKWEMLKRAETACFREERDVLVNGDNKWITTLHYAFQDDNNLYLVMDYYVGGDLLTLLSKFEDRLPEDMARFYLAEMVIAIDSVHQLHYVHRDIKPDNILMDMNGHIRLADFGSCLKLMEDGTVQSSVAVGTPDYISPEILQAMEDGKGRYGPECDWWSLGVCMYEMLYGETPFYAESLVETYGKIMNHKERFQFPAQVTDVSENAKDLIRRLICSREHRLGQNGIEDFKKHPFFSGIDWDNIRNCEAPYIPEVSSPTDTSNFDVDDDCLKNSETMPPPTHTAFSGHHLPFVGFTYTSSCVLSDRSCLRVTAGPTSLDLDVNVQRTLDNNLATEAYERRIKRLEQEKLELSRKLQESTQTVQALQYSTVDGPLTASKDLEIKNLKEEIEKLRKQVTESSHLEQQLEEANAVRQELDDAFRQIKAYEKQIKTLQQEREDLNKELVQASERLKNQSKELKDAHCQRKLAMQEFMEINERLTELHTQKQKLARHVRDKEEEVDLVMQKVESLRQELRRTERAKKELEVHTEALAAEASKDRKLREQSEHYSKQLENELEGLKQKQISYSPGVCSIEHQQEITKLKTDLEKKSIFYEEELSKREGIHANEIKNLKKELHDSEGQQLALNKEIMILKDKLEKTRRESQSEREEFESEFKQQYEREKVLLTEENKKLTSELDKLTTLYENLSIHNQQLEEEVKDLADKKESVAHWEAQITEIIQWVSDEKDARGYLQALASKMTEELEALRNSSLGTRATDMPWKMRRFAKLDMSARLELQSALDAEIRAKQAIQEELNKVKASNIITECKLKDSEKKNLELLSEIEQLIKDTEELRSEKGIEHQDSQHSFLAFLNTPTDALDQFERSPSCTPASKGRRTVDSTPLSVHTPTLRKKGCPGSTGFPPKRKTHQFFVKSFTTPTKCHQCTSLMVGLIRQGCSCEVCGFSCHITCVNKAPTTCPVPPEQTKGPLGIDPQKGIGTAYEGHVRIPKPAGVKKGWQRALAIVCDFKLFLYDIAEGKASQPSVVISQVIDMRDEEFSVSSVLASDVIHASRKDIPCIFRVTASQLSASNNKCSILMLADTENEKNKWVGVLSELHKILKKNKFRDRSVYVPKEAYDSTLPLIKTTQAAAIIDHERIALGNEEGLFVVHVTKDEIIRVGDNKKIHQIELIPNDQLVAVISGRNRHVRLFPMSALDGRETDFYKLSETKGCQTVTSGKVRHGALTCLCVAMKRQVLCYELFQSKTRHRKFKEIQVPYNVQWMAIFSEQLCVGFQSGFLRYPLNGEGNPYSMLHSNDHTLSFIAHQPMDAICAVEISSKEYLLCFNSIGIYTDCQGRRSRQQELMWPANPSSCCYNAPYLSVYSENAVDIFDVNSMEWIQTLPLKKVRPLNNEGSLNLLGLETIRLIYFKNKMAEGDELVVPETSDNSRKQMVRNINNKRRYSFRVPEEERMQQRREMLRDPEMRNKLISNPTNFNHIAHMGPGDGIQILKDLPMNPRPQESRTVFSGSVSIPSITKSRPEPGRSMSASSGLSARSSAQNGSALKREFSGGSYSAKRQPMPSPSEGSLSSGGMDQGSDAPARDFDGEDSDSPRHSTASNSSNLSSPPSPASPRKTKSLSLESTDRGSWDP

Sample 1
Host: mouse
Medium: microsomes or S9
Concentration: 2 µM
Time: 0.5 h
Endpoint: remaining compound
CCOc1cc(=O)n2c(c1C(=O)Nc1ccc(C)cc1Cl)CCCC2: 0.0735%
Cc1nn(-c2ncnc3[nH]cnc23)c2c1C(c1cccc(OC(C)C)c1)CC(=O)N2 (stereo not drawn): 0.307%
CC(C)c1ccc(-c2cn3c4ccccc4nc3n2CCN2CCCCC2)cc1: 0.469%
CC(C)(C)NS(=O)(=O)c1ccc(CCC(=O)N2CCCCCC2)cc1: 2.2%
COc1ccc(Cn2nc(-c3ccc(O)cc3)n(-c3ccc(OCCN(C)C)cc3)c2=O)cc1: 88.8%
Clc1ccc(-c2nc3ncccn3c2Nc2ccccc2)cc1: 17.9%
O=C(Nc1cc(F)cc(F)c1)N1CCC(O)(CO)C1 (stereo not drawn): 68.6%
Cc1nc2c(c(-c3ccc(Cl)cc3)c1CO)CN(C1CCCCC1)C2=O: 47.8%
O[C@H]1Cc2ccccc2[C@H]1Nc1nc(-c2ccccn2)nc2c1CCNC2: > 100%
COC(=O)c1c(C)nc2c(c1OS(=O)(=O)C(F)(F)F)CCN2C: 0.163%

Sample 2
Organism: Sarcocystis neurona
Effect on: parasite growth
Concentration: concentration not given
Notes: secondary screen
Endpoint: inhibition
C[C@]12C=CC(=O)C=C1CC[C@@H]1[C@@H]2[C@@H](O)C[C@@]2(C)[C@H]1CC[C@]2(O)C(=O)COC(=O)CCC(=O)[O-].[Na+]: -14.4%
C[N+]1(C)CCCC(OC(=O)C(O)(c2ccccc2)c2ccccc2)C1.[Br-] (stereo not drawn): -14.9%
Cc1cccc(CCN2CCC(C(=O)c3ccc(NS(C)(=O)=O)cc3)CC2)n1.Cl.Cl: -9.2%
CN1C(C(=O)Nc2ccccn2)=C(O)c2ccccc2S1(=O)=O.O: -20.8%
C[C@]12CCC(=O)C=C1CC[C@@H]1[C@@H]2[C@@H](O)C[C@@]2(C)[C@H]1CC[C@]2(O)C(=O)COC(=O)CCC(=O)O: -5.4%
C[C@H](N[C@@H](CCc1ccccc1)C(=O)O)C(=O)N1CCC[C@H]1C(=O)O: -6.7%
CCOC(=O)c1ccc(OC(=O)CCCCCN=C(N)N)cc1.CS(=O)(=O)O: -21.2%
CN(Cc1cnc2nc(N)nc(N)c2n1)c1ccc(C(=O)N[C@@H](CCC(=O)O)C(=O)O)cc1.O: -27.6%
Cl.NC(N)=NC(=O)c1nc(Cl)c(N)nc1N.O: -18.9%

Sample 3
Target: Beta-adrenergic receptor kinase 1 (GRK2, Homo sapiens, UniProt P25098)
Effect on: enzyme activity
Mode: inhibitor
Concentration: 0.5 µM
Relative to: control
Endpoint: remaining activity
Residues (P25098 1-689): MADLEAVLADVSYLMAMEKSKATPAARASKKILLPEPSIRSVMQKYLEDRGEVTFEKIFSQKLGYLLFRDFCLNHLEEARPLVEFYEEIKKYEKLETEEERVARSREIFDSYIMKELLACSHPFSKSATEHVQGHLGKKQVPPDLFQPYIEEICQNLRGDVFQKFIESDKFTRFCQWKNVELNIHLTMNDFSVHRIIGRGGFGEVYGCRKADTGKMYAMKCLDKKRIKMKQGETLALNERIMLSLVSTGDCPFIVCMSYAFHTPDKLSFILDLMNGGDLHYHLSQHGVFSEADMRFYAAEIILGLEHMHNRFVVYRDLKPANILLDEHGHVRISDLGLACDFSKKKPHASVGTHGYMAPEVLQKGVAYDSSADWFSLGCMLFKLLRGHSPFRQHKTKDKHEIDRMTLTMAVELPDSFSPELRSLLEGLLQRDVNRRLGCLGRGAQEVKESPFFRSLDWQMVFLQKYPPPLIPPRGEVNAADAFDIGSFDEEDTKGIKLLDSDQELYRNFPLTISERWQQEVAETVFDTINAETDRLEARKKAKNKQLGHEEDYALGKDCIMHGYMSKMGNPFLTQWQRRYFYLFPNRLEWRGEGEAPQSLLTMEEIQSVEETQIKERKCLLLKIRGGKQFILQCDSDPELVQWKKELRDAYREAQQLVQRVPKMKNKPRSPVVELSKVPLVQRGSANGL
COc1ccc(S(=O)(=O)N(CCO)c2ccccc2CN(C)CC=Cc2ccc(Cl)cc2)cc1: 97.9%
CC(C)(C)n1nc(Cc2cccc3ccccc23)c2c(N)ncnc21: 101%
CC(=O)c1ccc(N2CCOCC2)cc1O: 99%
CSc1nc(-c2ccnc(N[C@@H](C)c3ccccc3)c2)c(-c2ccc(F)cc2)[nH]1 (racemic): 102%
Cc1cc(Nc2nc(-c3ccccc3)nc3ccccc23)n[nH]1: 106%
N#CC(=C(N)Sc1ccc(N)cc1)c1ccccc1C(F)(F)F: 114%
CCc1[nH]c(-c2ccc(OC)cc2)nc1-c1ccncc1: 101%
Nc1nccc(-c2c(-c3ccc(F)cc3)ncn2C2CCNCC2)n1: 99.7%
COc1cc(Nc2c(C#N)cnc3cc(OCCCN4CCN(C)CC4)c(OC)cc23)c(Cl)cc1Cl: 97.3%
O=C1NC(=O)C(c2c[nH]c3ccccc23)=C1c1c[nH]c2ccccc12: 98.4%
CC[n+]1c(/C=C/N(C)c2ccccc2)n(-c2ccccc2)c2ccc(-c3nc4ccccc4s3)cc21: 87.5%
Cc1cncc2cccc(S(=O)(=O)N3CCCN(C(=O)CN)C[C@@H]3C)c12: 101%
Fc1ccc(-c2nc3n(c2-c2ccncc2)CCS3)cc1: 102%
CCCC(=O)Oc1ccc2[nH]c(C(=O)c3cc4ccccc4[nH]3)cc2c1: 102%
O=S(=O)(NCCNC/C=C/c1ccc(Br)cc1)c1cccc2cnccc12: 91.3%
Cc1ccc(NC2=CC(=O)c3sc(C)nc3C2=O)cc1: 96.6%
Nc1ncnc2c1cnn2-c1ccccc1: 99.4%
NC(=O)c1ccc(N(C(N)=O)c2c(F)cccc2F)nc1-c1ccc(F)cc1F: 99%
CC#CC(=O)Nc1cc2c(Nc3ccc(F)c(Cl)c3)ncnc2cn1: 98.3%
Oc1ccc(Nc2nc(-c3ccc(Cl)cc3)cs2)cc1: 100%
O=C1Cc2c([nH]c3ccc([N+](=O)[O-])cc23)-c2ccccc2N1: 91.8%
Nc1nc(Nc2ccc(S(N)(=O)=O)cc2)nn1C(=O)c1c(F)cccc1F: 97.3%

Single results of other studies
Cn1cncc1[C@@](O)(COc1ccc(C#N)cc1-c1ccc(OC(F)(F)F)cc1)c1ccc(C#N)cc1 — normal cells (HEK293T; high-content imaging; 10 µM, 12 h): 93.7% and 85.7%
O=C1NC(c2ccccn2)Sc2ccccc21 (stereo not drawn) — pKd (DAPK3 (Homo sapiens, UniProt O43293); binding, competition with immobilised ligand): < 5.00
O=C(O)[C@H]1[C@H](Cn2nnc3ccccc3c2=O)CC[C@@H]1C(=O)c1ccc(OCCC2CCOCC2)cc1 — remaining binding (CDC42BPA (Homo sapiens, UniProt Q5VT25); cell-free assay, competition with immobilised ligand; 1 µM): 100%
Cc1cc2c(-c3ccco3)cnc(N[C@H]3CCN(C)C[C@@H]3C(=O)NC3CCCCC3)c2[nH]c1=O — inhibition (HRH1 (Homo sapiens, UniProt P35367); ligand displacement; 10 µM): 11.7%
